Experimental data from different studies.
Parts stem from different laboratories: compare values within a part only.

Block 1 — technique: protein binding microarray; molecule type: double-stranded DNA, one strand shown; matrix: in vitro; tested at: not given; reference: not given; reading: higher = stronger binding
Target: Histone acetyltransferase KAT6A, both winged helices, GST fusion (KAT6A, Homo sapiens, UniProt Q92794, residues 1-181)
Setting: 8-mer, flanks averaged, mean of 2 arrays, mostly near background
Target sequence (chain): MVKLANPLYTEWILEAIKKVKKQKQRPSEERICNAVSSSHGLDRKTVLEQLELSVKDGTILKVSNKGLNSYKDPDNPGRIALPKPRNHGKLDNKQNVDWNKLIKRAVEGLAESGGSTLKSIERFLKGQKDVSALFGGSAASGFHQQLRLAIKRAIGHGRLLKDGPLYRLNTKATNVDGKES
Sequence	E-score
CCGCATGA	0.0472
CCGCTGGC	0.188
TAGCCGAA	0.0423
TAATAGCA	-0.158
AGGGCCTG	-0.275
CCATCGAA	-0.0614
CGTTAAAA	0.0672
ATGAATCA	-0.116

Block 2 — technique: competition protein-binding microarray; molecule type: double-stranded DNA, one strand shown; matrix: in vitro; tested at: 2 µM; with: Cbf1 competitor, 0.05 µM; reading: higher = stronger binding; constant ends, left off below: … GTCTTGATTCGCTTGACGCTGCTG
Target: Phosphate system positive regulatory protein PHO4, full length, GST-tagged (PHO4, Saccharomyces cerevisiae, UniProt P07270, residues 1-312)
Setting: whole 60-bp probe, lowest competitor level
Target sequence (chain): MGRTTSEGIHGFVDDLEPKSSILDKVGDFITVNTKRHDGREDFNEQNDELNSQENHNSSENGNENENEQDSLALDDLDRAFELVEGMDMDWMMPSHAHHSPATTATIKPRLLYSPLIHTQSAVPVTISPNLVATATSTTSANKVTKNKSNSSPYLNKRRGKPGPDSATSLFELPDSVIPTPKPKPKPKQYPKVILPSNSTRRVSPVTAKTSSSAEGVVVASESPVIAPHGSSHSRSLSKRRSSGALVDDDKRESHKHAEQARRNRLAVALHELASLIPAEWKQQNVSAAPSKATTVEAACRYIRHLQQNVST
Sequence	fluorescence intensity
TGCGCAACAACTTGTCACAATACTTTATGTCTAGAA	3250 a.u.
CGGGGTTAAGTTTTTCACGTGCTCTGCTTGCAGCAG	13300 a.u.
GCCAGTCTGAGAAAGCACGCTGCTTGTGCTTGTTGG	8690 a.u.
CGTCCTAGTGATTGTCACGACACTTCCATGAGGAAG	5660 a.u.
AAATTACTAAGTTTTCACGTGTCTTACCCCGTATGA	14500 a.u.
GGAAAGCCTATTTCTCACGTTTTCCGGCACTTAATG	9210 a.u.
CTTCTGTAAATTTGTCACTGCACTTGACGCGCCCCG	3530 a.u.
CTTTCCCGATCTTGCAGGGTGGGTGTAGCACATTTG	5500 a.u.

Other studies, line by line
Molecule	target or system	assay	system	conditions	measurement	value
KIF5B (Homo sapiens, UniProt P33176)	KLC1 (Homo sapiens, UniProt Q07866)	cross-linking MS		hits only	interaction screen	cross-linked
O=C(N[C@H](CO)[C@H](O)c1ccc([N+](=O)[O-])cc1)C(Cl)Cl	Huh-7			10 µM, 24 h	viability	94.6%
FAM98B (Homo sapiens, UniProt Q52LJ0)	RTRAF (Homo sapiens, UniProt Q9Y224)	cross-linking MS		hits only	interaction screen	cross-linked
PDCD11 (Homo sapiens, UniProt Q14690)	DDX52 (Homo sapiens, UniProt Q9Y2R4)	cross-linking MS	cell fractions	with: DSSO	cross-linked residues	Y1701 to K15
COX7B (Homo sapiens, UniProt P24311)	SMIM20 (Homo sapiens, UniProt Q8N5G0)	cross-linking MS	cell fractions	with: DSSO	cross-linked residues	K75 to K38

Repeated from above (block 2):
Sequence	fluorescence intensity
GCCAGTCTGAGAAAGCACGCTGCTTGTGCTTGTTGG	8690 a.u.
CGTCCTAGTGATTGTCACGACACTTCCATGAGGAAG	5660 a.u.
